Experimental data of several laboratories.
± marks the error that the study gave.

Molecule	test	system	setting	how to read	measurement	value
C=C(C)[C@@H]1CC[C@]2(NCCN3CCS(=O)(=O)CC3)CC[C@]3(C)[C@H](CC[C@@H]4[C@@]5(C)CC=C(C6=CC[C@@](CF)(C(=O)O)CC6)C(C)(C)[C@@H]5CC[C@]43C)[C@@H]12	–	human	oral, 320 mg once daily, day 14, multiple ascending dose	–	AUC(0-tau)	32000 ng·h/mL
O=C(O)CNC(=O)c1ccccc1	–	human hemodialysis patients, plasma ultrafiltrate	pre-treatment	relative to: hemodialysis over normal subjects	free concentration ratio	53
OCCN1CCN(CCCN2c3ccccc3Sc3ccc(Cl)cc32)CC1	in situ brain perfusion	rat	no efflux inhibition	–	log intrinsic permeability	-2.62
CC[C@H](C)[C@H](NC(=O)[C@H](Cc1ccccc1)NC(=O)[C@H](CCC(=O)O)NC(=O)[C@H](CCCCNC(=O)COCCOCCNC(=O)COCCOCCNC(=O)CC[C@H](NC(=O)CCCCCCCCCCCCCCCCC(=O)O)C(=O)O)NC(=O)[C@H](C)NC(=O)[C@H](C)NC(=O)[C@H](CCC(N)=O)NC(=O)CNC(=O)[C@H](CCC(=O)O)NC(=O)[C@H](CC(C)C)NC(=O)[C@H](Cc1ccc(O)cc1)NC(=O)[C@H](CO)NC(=O)[C@H](CO)NC(=O)[C@@H](NC(=O)[C@H](CC(=O)O)NC(=O)[C@H](CO)NC(=O)[C@@H](NC(=O)[C@H](Cc1ccccc1)NC(=O)[C@@H](NC(=O)CNC(=O)[C@H](CCC(=O)O)NC(=O)C(C)(C)NC(=O)[C@@H](N)Cc1cnc[nH]1)[C@@H](C)O)[C@@H](C)O)C(C)C)C(=O)N[C@@H](C)C(=O)N[C@@H](Cc1c[nH]c2ccccc12)C(=O)N[C@@H](CC(C)C)C(=O)N[C@H](C(=O)N[C@@H](CCCNC(=N)N)C(=O)NCC(=O)N[C@@H](CCCNC(=N)N)C(=O)NCC(=O)O)C(C)C	–	Japanese subjects	subcutaneous once weekly, 1.0 mg, geometric mean	relative to: steady state over single dose	dose-corrected accumulation ratio	2.09
Cn1c(-c2ccc(C(N)=O)cc2F)nnc1C(C)(C)Oc1c(F)cc(Cl)cc1F	–	young Japanese subjects, plasma	oral, 10 mg single dose, day 1	–	AUC(0-inf) range	652 to 1980 ng·h/mL
C[C@@]12C[C@@]3(O)O[C@@H](O1)[C@]1(COC(=O)c4ccccc4)[C@H]3C[C@@]12O[C@@H]1O[C@H](CO)[C@@H](O)[C@H](O)[C@H]1O	–	extracted rat plasma, autosampler	45.0 ng/mL, 24 h, 4 °C, post-preparative stability, low QC	–	accuracy	100 % nominal
ciclosporin	dialysis	phosphate buffer	52 h, pH 7.4, room temperature	–	drug release	< 4%
COc1cc2ncnc(Nc3ccc(F)c(Cl)c3)c2cc1OCCCN1CCOCC1	cytochrome c release, ELISA	BALB/cByJ female mouse liver mitochondria	30 min	relative to: alamethicin maximal release	EC20	50.5 µM
O=C(c1cccnc1-c1ccncc1)N1CCC(O)(Cc2ccccc2)CC1	–	healthy human, plasma	oral, 100 mg once daily, day 1, arithmetic mean	–	AUCinf	451 ng·h/mL
CC[C@H]1OC(=O)[C@H](C)[C@@H](O[C@H]2C[C@@](C)(OC)[C@@H](O)[C@H](C)O2)[C@H](C)[C@@H](O[C@@H]2O[C@H](C)C[C@H](N(C)C)[C@H]2O)[C@](C)(O)C[C@@H](C)/C(=N\OCOCCOC)[C@H](C)[C@@H](O)[C@]1(C)O	mitochondrial swelling	BALB/cByJ female mouse liver mitochondria	30 min, together with: succinate + rotenone	relative to: CaCl2 maximal swelling	EC20	310 µM
COc1ccnc(CS(=O)(=O)c2nc3ccc(OC(F)F)cc3[nH]2)c1OC	–	obese children with GERD	oral, pantoprazole, single dose	relative to: CYP2C19 poor over non-poor metabolizers	AUC(0-last), dose-normalized	increased
NCCCC[C@@H]1NC(=O)[C@@H](Cc2c[nH]c3ccccc23)NC(=O)[C@H](c2ccccc2)NC(=O)[C@@H]2C[C@@H](OC(=O)NCCN)CN2C(=O)[C@H](Cc2ccccc2)NC(=O)[C@H](Cc2ccc(OCc3ccccc3)cc2)NC1=O	radioimmunoassay	healthy human male volunteers, plasma	subcutaneous, 10 µg	–	alpha half-life	2 ± 0.5 h
CC(C)(S)[C@@H](N)C(=O)O	cytochrome c release, ELISA	BALB/cByJ female mouse liver mitochondria	30 min	relative to: alamethicin maximal release	EC20	> 400 µM
CCOC1=CC(=O)C2=NC(C)(C)C=C(C)C2=C1	LC-MS/MS	piglets, liver	oral, 50 mg/kg feed of ethoxyquin, 42 days, after glucuronidase	–	residue concentration	29.4 ± 9.7 ng/g
O=C(Cc1cccc(OC(F)(F)F)c1)Nc1ccc(CCCCc2nnc(NC(=O)Cc3ccccn3)s2)nn1	–	human patients, plasma	oral, 150 mg three times daily fasted, cycle 1 day 15 steady state	–	AUC(0-8h)	7600 ng·h/mL
CC[C@H](C)[C@H](NC(=O)[C@H](C)NC(=O)[C@H](CCCNC(=N)N)NC(=O)[C@H](CCCNC(=N)N)NC(=O)[C@H](CC(N)=O)NC(=O)[C@H](CCCNC(=N)N)NC(=O)[C@H](CCCNC(=N)N)NC(=O)[C@H](C)NC(=O)[C@@H](NC(=O)[C@@H](NC(=O)[C@@H](NC(=O)[C@H](CS)NC(=O)[C@H](CCCCN)NC(=O)[C@@H](N)CCCNC(=N)N)C(C)C)[C@@H](C)CC)C(C)C)C(=O)N[C@H](C(=O)N[C@@H](CC(C)C)C(=O)N[C@@H](CS)C(=O)N[C@@H](CCCNC(=N)N)C(=O)O)[C@@H](C)CC	LC-MS	PBS	0.1 mg/mL	–	single disulfide form	59%
